Published values pooled from the literature.
Numbered parts are unrelated; each lists some results of a single study.
Chain of UniProt Q15303 (whole entry, looked up): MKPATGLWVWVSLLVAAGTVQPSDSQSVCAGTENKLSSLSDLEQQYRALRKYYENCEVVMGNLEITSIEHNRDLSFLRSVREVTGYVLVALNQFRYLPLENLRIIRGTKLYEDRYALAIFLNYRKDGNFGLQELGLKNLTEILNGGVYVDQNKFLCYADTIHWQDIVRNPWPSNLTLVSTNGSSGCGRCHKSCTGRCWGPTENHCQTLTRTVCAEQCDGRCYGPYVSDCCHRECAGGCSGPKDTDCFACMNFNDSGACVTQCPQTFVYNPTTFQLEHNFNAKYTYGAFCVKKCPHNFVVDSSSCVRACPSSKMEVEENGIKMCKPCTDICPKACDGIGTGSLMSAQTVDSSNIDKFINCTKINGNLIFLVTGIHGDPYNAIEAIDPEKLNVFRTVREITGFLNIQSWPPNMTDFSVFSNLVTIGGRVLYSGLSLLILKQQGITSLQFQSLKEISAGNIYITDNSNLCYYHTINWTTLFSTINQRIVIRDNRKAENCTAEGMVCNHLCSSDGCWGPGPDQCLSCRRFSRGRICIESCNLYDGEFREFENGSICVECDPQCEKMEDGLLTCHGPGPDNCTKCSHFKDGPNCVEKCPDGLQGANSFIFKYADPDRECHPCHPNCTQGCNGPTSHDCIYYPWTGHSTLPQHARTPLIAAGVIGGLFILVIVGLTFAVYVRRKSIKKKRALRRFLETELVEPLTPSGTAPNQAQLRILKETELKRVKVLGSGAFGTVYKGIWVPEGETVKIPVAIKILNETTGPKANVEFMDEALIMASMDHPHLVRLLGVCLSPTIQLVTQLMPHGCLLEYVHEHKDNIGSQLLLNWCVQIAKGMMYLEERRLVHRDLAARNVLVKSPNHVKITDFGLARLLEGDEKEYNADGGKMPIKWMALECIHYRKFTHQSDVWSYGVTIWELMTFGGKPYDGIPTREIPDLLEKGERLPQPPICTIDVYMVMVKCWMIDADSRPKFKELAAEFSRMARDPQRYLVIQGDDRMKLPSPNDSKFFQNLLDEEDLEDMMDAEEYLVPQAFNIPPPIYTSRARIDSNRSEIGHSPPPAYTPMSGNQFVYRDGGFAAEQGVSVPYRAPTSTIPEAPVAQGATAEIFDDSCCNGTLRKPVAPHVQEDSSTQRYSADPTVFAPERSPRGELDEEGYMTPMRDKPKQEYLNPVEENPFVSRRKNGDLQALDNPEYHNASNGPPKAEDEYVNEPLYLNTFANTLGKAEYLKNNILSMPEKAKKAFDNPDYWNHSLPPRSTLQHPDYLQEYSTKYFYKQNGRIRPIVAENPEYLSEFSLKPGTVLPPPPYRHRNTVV
Chain of UniProt P49137 (whole entry, looked up): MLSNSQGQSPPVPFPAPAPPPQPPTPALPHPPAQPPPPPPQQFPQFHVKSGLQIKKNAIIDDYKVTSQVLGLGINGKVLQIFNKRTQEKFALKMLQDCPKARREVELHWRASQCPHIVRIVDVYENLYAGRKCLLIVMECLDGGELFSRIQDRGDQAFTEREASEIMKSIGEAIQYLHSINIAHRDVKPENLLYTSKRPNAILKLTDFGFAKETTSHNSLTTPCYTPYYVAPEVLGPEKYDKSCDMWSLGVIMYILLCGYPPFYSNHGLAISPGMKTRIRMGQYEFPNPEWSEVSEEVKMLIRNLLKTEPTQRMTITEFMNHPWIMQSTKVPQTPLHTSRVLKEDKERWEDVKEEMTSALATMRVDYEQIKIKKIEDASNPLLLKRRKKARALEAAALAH
Chain of UniProt Q9HC98 (whole entry, looked up): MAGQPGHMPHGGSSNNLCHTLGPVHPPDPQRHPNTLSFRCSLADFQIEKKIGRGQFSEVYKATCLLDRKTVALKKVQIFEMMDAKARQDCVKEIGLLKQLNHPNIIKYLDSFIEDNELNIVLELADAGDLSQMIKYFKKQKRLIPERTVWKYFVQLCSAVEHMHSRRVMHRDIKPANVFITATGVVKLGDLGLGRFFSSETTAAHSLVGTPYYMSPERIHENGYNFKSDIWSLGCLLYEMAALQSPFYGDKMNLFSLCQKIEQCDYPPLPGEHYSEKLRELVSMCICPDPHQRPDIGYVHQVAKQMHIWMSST
Chain of UniProt Q96GD4 (whole entry, looked up): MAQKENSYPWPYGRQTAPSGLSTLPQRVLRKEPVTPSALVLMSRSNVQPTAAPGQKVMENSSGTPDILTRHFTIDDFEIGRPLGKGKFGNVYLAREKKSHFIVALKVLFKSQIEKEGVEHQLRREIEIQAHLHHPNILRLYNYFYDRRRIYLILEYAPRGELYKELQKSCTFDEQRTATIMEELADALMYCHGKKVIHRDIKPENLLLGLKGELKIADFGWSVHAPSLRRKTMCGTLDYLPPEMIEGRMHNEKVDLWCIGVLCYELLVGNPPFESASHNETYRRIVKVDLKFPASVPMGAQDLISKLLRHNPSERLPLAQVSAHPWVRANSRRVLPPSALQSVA
Chain of UniProt Q8TDX7 (whole entry, looked up): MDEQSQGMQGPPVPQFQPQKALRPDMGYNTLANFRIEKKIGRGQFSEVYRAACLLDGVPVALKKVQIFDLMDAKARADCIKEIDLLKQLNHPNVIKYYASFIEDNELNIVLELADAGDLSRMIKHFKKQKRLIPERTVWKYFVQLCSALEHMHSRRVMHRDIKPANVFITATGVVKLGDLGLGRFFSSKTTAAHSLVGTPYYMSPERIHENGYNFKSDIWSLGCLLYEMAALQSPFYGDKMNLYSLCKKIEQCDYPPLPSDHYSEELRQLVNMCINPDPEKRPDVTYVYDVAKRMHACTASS
Chain of UniProt P19525 (whole entry, looked up): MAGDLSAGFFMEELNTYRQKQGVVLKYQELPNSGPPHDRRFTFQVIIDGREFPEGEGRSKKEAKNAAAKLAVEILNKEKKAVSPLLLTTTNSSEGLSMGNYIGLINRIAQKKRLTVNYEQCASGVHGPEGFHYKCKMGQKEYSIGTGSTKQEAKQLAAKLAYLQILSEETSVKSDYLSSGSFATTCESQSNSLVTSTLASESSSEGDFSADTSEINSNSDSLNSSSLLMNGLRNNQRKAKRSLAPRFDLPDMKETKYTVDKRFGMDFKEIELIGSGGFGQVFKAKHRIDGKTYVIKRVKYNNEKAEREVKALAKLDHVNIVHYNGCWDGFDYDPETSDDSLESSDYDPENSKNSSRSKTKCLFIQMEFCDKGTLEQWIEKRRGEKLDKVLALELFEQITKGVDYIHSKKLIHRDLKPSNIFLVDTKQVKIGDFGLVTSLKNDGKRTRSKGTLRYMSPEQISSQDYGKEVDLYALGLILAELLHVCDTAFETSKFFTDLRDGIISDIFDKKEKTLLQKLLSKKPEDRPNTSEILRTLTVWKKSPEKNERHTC
Chain of UniProt Q14012 (whole entry, looked up): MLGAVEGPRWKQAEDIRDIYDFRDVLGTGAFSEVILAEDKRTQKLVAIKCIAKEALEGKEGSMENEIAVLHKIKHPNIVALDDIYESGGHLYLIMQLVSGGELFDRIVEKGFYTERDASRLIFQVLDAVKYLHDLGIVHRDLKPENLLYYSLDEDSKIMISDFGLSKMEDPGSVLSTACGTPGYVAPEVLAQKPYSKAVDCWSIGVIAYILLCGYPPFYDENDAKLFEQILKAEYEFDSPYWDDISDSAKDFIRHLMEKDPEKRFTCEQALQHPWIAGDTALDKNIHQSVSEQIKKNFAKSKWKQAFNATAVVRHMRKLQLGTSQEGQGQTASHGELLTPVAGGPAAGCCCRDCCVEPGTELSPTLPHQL
Chain of UniProt P57078 (whole entry, looked up): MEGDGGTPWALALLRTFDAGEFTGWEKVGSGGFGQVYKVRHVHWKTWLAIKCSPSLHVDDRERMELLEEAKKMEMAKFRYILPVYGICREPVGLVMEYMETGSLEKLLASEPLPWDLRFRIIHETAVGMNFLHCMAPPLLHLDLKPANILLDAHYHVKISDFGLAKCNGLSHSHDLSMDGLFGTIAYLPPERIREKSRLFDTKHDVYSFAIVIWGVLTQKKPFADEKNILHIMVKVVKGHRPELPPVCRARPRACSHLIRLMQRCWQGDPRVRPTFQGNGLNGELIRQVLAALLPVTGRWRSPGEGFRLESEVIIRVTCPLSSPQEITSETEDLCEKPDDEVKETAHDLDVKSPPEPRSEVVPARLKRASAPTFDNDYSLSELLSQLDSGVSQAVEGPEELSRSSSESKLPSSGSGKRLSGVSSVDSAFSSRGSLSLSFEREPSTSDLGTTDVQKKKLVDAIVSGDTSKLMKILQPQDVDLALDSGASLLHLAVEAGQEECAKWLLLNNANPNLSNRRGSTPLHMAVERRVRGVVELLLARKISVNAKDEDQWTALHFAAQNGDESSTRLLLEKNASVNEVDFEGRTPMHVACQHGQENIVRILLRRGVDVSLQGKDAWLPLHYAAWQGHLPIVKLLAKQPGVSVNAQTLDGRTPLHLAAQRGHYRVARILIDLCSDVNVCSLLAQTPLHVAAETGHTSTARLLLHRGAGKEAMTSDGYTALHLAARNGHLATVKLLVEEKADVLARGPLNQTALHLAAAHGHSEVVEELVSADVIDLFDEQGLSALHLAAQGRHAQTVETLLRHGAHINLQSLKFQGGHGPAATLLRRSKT

Series 1
Target: Myc proto-oncogene protein, bHLH-zipper, MAX partner unstated (MYC, Homo sapiens, UniProt P01106, residues 368-449)
Chain of UniProt P01106 (368-449, looked up): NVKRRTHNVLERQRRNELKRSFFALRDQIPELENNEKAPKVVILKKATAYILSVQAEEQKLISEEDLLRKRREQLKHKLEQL
Technique: protein-binding microarray
Molecule type: double-stranded DNA, one strand shown
Medium: in vitro
Tested at: not given
Setting: k-mer, scored over probes, only values ≥0.25
Direction: higher = stronger binding
`GCATGCAA` gave an E-score of 0.338.
`TCCCACGA` has an E-score of 0.252.
The E-score of `ACGACCAC` is reported as 0.342.
`GACATGCC` gave an E-score of 0.358.
With `TGCCCGCA` the E-score was 0.273.
With `CGTGCGGC` the E-score was 0.397.
For `CACGCTCG`, the E-score was 0.374.
`ATGCGCGG` gave an E-score of 0.268.

Series 2
Compound: Cc1nc(Cc2cccc(C(F)(F)F)c2)sc1-c1ccc(C(N)=O)nc1
Technique: competition with immobilised ligand
Tested at: 1 µM
It gave 49% for remaining binding (EIF2AK2 (Homo sapiens, UniProt P19525); binding).
NEK6 (Homo sapiens, UniProt Q9HC98); cell-free assay — remaining binding: 90%.
For CDK2 (Homo sapiens, UniProt P24941); cell-free assay: remaining binding read 100%.
The remaining binding was 74% (ERBB4 (Homo sapiens, UniProt Q15303); cell-free assay).
It gave 100% for remaining binding (NEK4 (Homo sapiens, UniProt P51957); cell-free assay).
The remaining binding was 100% (Aurora kinase B (AURKB, Homo sapiens, UniProt Q96GD4); cell-free assay).
It gave 83% for remaining binding (EGFR (Homo sapiens, UniProt P00533, del747-752/P753S); cell-free assay).
It gave 91% for remaining binding (GAK (Homo sapiens, UniProt O14976); cell-free assay).
The remaining binding was 100% (STK39 (Homo sapiens, UniProt Q9UEW8); cell-free assay).
RIPK4 (Homo sapiens, UniProt P57078); cell-free assay — remaining binding: 83%.
For MAPKAPK2 (Homo sapiens, UniProt P49137); cell-free assay: remaining binding read 100%.
For CAMK1 (Homo sapiens, UniProt Q14012); cell-free assay: remaining binding read 86%.
It gave 98% for remaining binding (NEK7 (Homo sapiens, UniProt Q8TDX7); cell-free assay).

Series 3
Organism: Sarcocystis neurona
Read-out: parasite growth
Tested at: 10 µM
Setting: secondary screen
CN1CCc2cc(Cl)c(O)cc2[C@@H](c2ccccc2)C1.Cl has an inhibition of -56.1%.
For Nc1nc(N)c2nc(-c3ccccc3)c(N)nc2n1, the inhibition was -85.6%.
CC(COc1ccccc1)N(CCCl)Cc1ccccc1 (stereo not drawn) gave an inhibition of -28.6%.
The inhibition of CC(C)NCC(O)COc1ccc(CC(N)=O)cc1 (stereo not drawn) is reported as -2.7%.

Series 4
Target: Ras GTPase-activating protein-binding protein 1, full length (G3BP1, Homo sapiens, UniProt Q13283)
Chain of UniProt Q13283 (whole entry, looked up): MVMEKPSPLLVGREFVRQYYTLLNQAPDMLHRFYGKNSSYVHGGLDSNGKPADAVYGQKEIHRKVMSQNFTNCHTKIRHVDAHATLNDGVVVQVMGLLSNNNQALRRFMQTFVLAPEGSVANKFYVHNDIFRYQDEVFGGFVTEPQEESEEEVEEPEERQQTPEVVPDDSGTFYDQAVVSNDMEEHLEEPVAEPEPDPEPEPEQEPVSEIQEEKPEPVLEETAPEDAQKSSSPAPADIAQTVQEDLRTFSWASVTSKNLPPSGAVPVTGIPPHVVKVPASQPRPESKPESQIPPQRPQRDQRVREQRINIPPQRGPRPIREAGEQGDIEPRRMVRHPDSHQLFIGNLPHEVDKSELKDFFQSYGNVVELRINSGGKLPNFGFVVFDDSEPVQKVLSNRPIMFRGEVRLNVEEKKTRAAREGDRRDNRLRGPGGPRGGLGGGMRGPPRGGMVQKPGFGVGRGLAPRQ
Technique: RNA Bind-n-Seq
Molecule type: RNA
Medium: in vitro
Tested at: 200 nM
Setting: whole 134-nt RNA, ends assumed
With: 150 mM LiCl
Relative to: input library
Direction: higher = stronger binding
All molecules: 7-deaza-guanosine replaces G
Shared flanks, not repeated: GGGAGUUCUACAGUCCGACGAUC … UGGAAUUCUCGGGUGUCAAGG
The log2 enrichment of `GUCCUGUGCUACACAUCGUAUGUACCGAAUCGGGGAAAGGGGUUUUUUUGGGGAGGGGAAAGUAUUAUGUUACGCCGUUCGGAUCUGCAC` is reported as -0.355.
For `CAAGUCCUGUGCUACACAUCGUAUGUACCGAAUCGGGUUUGGGAGGGAAAAAGGGAAAGUAUUAUGUUACGCCGUUCGGAUCUGCACUUC`, the log2 enrichment was -0.184.
For `UUGGGCUGCCCAUCACCGUGGCCCAUGUGGAUGGCCAAACCCACAUGUUAUUUGGCUCUGACCGGAUGGAGCUGCUGGCGCACCUGCUGG`, the log2 enrichment was 0.0327.
For `GUCCUGUGCUACACAUCGUAUGUACCGAAUCGGUUUUUUGGUUUUUUGGGGUUUUUUGGAAAGUAUUAUGUUACGCCGUUCGGAUCUGCA`, the log2 enrichment was -0.606.
The log2 enrichment of `CCUGUGCUACACAUCGUAUGUACCGAAUCGGCCCCCCCGGCCCCCCCGGGGCCCCCCCGGGAAAGUAUUAUGUUACGCCGUUCGGAUCUG` is reported as 0.263.
For `CACAGACAACACGCACCCACACAGACACAGAGGGAAGGGGUUGGGAUGCGGACAGGGUGCACAGCAGGGCGGGGUAGGACCCCAGCCCCU`, the log2 enrichment was -1.49.
`CACAGAAAACACGCACCCACACAGACACAGAGGGAAGGGGUUGGGAUGGGGACAGGGUGCACAGCAGGGCGGGGUAGGACCCCAGCCCCU` has a log2 enrichment of 0.257.
For `AGUCCUGUGCUACACAUCGUAUGUACCGAAUCAAACCCAAAUUUUUUUAAACCCAAAAAAGUAUUAUGUUACGCCGUUCGGAUCUGCACU`, the log2 enrichment was 1.45.

Some of these lines once more (series 4):
For `GUCCUGUGCUACACAUCGUAUGUACCGAAUCGGUUUUUUGGUUUUUUGGGGUUUUUUGGAAAGUAUUAUGUUACGCCGUUCGGAUCUGCA`, the log2 enrichment was -0.606.
The log2 enrichment of `CCUGUGCUACACAUCGUAUGUACCGAAUCGGCCCCCCCGGCCCCCCCGGGGCCCCCCCGGGAAAGUAUUAUGUUACGCCGUUCGGAUCUG` is reported as 0.263.
For `CACAGACAACACGCACCCACACAGACACAGAGGGAAGGGGUUGGGAUGCGGACAGGGUGCACAGCAGGGCGGGGUAGGACCCCAGCCCCU`, the log2 enrichment was -1.49.
`CACAGAAAACACGCACCCACACAGACACAGAGGGAAGGGGUUGGGAUGGGGACAGGGUGCACAGCAGGGCGGGGUAGGACCCCAGCCCCU` has a log2 enrichment of 0.257.
